# Measurements collected from several papers.
# Lines come from different studies, so protocols differ. “And” joins repeats or separate records; there may be more than shown. Numbers after ± are the reported error.
SMILES,organism,test,test system,conditions,scale,measurement,result
C[C@@H](O)[C@H]1C(=O)N2C(C(=O)O)=C(S[C@@H]3CN[C@H](C(=O)N(C)C)C3)[C@H](C)[C@H]12,Morganella morganii,broth microdilution,clinical isolate RKI 93/15,,,MIC,≤ 0.5 µg/mL
CC[C@H]1OC(=O)[C@H](C)[C@@H](O[C@H]2C[C@@](C)(OC)[C@@H](O)[C@H](C)O2)[C@H](C)[C@@H](O[C@@H]2O[C@H](C)C[C@H](N(C)C)[C@H]2O)[C@](C)(O)C[C@@H](C)/C(=N\OCOCCOC)[C@H](C)[C@@H](O)[C@]1(C)O,Enterococcus faecalis,agar dilution,vancomycin-intermediate,20 isolates,,MIC50,> 128 µg/mL
N=C(N)c1ccc(OCCC(CCOc2ccc(C(=N)N)cc2)c2ccccc2)cc1 (stereo not drawn),Escherichia coli,checkerboard,552100 clinical isolate,"unit not given, with: rifampicin",lower = stronger synergy,FICI,≤ 0.063
COC(=O)[C@H](Cc1c[nH]c2ccccc12)NCc1cc2ccccc2nc1OC,Pseudomonas aeruginosa,,,"128 µg/mL, with: pentamidine 100 µM",reference: control,growth,44.2%
O=c1[nH]c2nc(-c3cccnc3)sc2c(=O)n1O,Brassica rapa,,,"10 mg/mL, 72 h",,root length inhibition,5%
Cc1cc(OC(C)C)ccc1C(=O)C(C)(C)NC(=O)c1sccc1C,Bipolaris oryzae,mycelial growth,PSA medium,"20 °C, suspension concentrate 400 g/L",,EC50,0.79 µg/mL
CC(=O)Oc1ccccc1C(=O)Nc1ncc([N+](=O)[O-])s1,Cryptosporidium parvum,,HCT-8,"EC90, 6 h",reference: DMSO control,parasite number,99.9% and 103% and 85.8% and 62.6%
CC(C)[C@@H]1NC(=O)[C@@H](CCCNC(=N)N)NC(=O)[C@H]([C@@H](C)O)NC(=O)[C@@H](CCCN)NC(=O)[C@H](Cc2ccccc2)NC(=O)[C@@H](Cc2ccccc2)NC1=O,Acanthamoeba castellanii,,,trophozoites,,IC50,13.1 µg/mL
CCOc1ccc2cc(-c3nn(CC4CCN(C)CC4)c4ncnc(N)c34)ccc2c1,Neospora caninum,qPCR,"sheep foetuses or lambs, mid-pregnancy infection, foetal brain","concentration not given, treated infected group, negatives set to 0.01",,parasite burden,17.4 tachyzoites/mg tissue and 4.69 tachyzoites/mg tissue and 28.3 tachyzoites/mg tissue and 7.29 tachyzoites/mg tissue and 5.59 tachyzoites/mg tissue
N=C(N)c1cccc(OCc2ccc(COc3cccc(C(=N)N)c3)cc2)c1,Escherichia coli,checkerboard,BW25113,"concentration not given, lowest-FICI combination, with: rifampicin",,MIC of compound in combination,50 µg/mL
COC[C@H]1O[C@@H]2O[C@H]3[C@H](OC)[C@@H](OC)[C@@H](O[C@H]4[C@H](OC)[C@@H](OC)[C@@H](O[C@H]5[C@H](OC)[C@@H](OC)[C@@H](O[C@H]6[C@H](OC)[C@@H](OC)[C@@H](O[C@H]7[C@H](OC)[C@@H](OC)[C@@H](O[C@H]8[C@H](OC)[C@@H](OC)[C@@H](O[C@H]1[C@H](OC)[C@H]2OC)O[C@@H]8COC)O[C@@H]7COC)O[C@@H]6COC)O[C@@H]5COC)O[C@@H]4COC)O[C@@H]3COC,Escherichia coli,"LuxR reporter, agonist",DH5α sensor strain,200 µM,,bioluminescence,742 ± 97 RLU
CC(C)[C@@H]1NC(=O)[C@@H](CCCN)NC(=O)[C@H]([C@@H](C)O)NC(=O)[C@@H](CCCN)NC(=O)[C@H](Cc2ccccc2)NC(=O)[C@@H](Cc2ccccc2)NC1=O,Acanthamoeba castellanii,,,trophozoites,,IC90,> 16 µg/mL
CCOC(=O)c1c(C)nc(NCCCCNc2ccnc3cc(Cl)ccc23)nc1C,reovirus 1,viral replication,Vero,,,EC50,> 20 µM
CCCCCCCCCC(=O)N[C@@H](Cc1c[nH]c2ccccc12)C(=O)N[C@H](CC(N)=O)C(=O)N[C@@H](CC(=O)O)C(=O)N[C@@H]1C(=O)NCC(=O)N[C@@H](CCCN)C(=O)N[C@@H](CC(=O)O)C(=O)N[C@H](C)C(=O)N[C@@H](CC(=O)O)C(=O)NCC(=O)N[C@H](CO)C(=O)N[C@@H]([C@H](C)CC(=O)O)C(=O)N[C@@H](CC(=O)c2ccccc2N)C(=O)O[C@@H]1C,Staphylococcus aureus,,SH1000,"with: cardiolipin, molar ratio 1",,MIC,1 µg/mL
CCn1c(=O)c(-c2cc[nH]n2)cc2c(C)nc(N)nc21,Coxsackievirus B3,viral replication,HeLa,"concentration not given, 20 h",,viral titre,decreased
CCCc1nc2c(=O)n(O)c(=O)[nH]c2s1,Brassica rapa,,,"100 mg/mL, 72 h",,root length inhibition,75%
CN[C@H](CC(C)C)C(=O)N[C@H]1C(=O)N[C@@H](CC(N)=O)C(=O)N[C@H]2C(=O)N[C@H]3C(=O)N[C@H](C(=O)N[C@H](C(=O)O)c4cc(O)cc(O)c4-c4cc3ccc4O)[C@H](O)c3ccc(c(Cl)c3)Oc3cc2cc(c3O[C@@H]2O[C@H](CO)[C@@H](O)[C@H](O)[C@H]2O[C@H]2C[C@](C)(N)[C@H](O)[C@H](C)O2)Oc2ccc(cc2Cl)[C@H]1O,Streptococcus pyogenes,,"erythromycin-sensitive, 21 strains",,,MBC,8 µg/mL
O=c1[nH]c2ncsc2c(=O)n1O,Brassica rapa,,,"100 mg/mL, 72 h",,root length inhibition,99%
Cc1cc(C)c2sc(NC(=O)c3cc4ccccc4o3)nc2n1,Zika virus,"cytopathic effect, neutral red uptake","Vero 76, MR766",,,EC50,6 µM
CC(C)n1ncc2c(C(=O)NCC3(C)CNC3)cc(C3CC3)nc21,Enterovirus D68,viral replication,"RD, recombinant wild-type US/MO/14-18947",3 µM,reference: untreated,plaque area,0%
CCOC(=O)c1c(C)nc(NCCNc2ccnc3cc(Cl)ccc23)nc1-c1ccccc1,reovirus 1,viral replication,Vero,,,EC50,> 4 µM
CC(C)c1nc2[nH]c(=O)n(O)c(=O)c2s1,Brassica rapa,,,"100 mg/mL, 72 h",,root length inhibition,98%
CC1(C)S[C@@H]2[C@H](NC(=O)[C@H](N)c3ccccc3)C(=O)N2[C@H]1C(=O)O,Enterococcus faecalis,agar dilution,"vancomycin-susceptible, 74 isolates",,,MIC50,128 µg/mL
O=c1[nH]c2nc(-c3ccncc3)sc2c(=O)n1O,Brassica rapa,,,"10 mg/mL, 72 h",,root length inhibition,1%
N=C(N)c1ccc(OCc2cc(Br)cc(COc3ccc(C(=N)N)cc3)c2)cc1,Escherichia coli,checkerboard,ATCC 25922,"unit not given, with: rifampicin",lower = stronger synergy,FICI,0.078
CC(C)[C@@H]1NC(=O)[C@@H](CCCCN)NC(=O)[C@H]([C@@H](C)O)NC(=O)[C@@H](CCCN)NC(=O)[C@H](Cc2ccccc2)NC(=O)[C@@H](Cc2ccccc2)NC1=O,Acanthamoeba castellanii,,,trophozoites,,IC50,> 16 µg/mL
CC1(C)OB(c2cccc(CNS(=O)(=O)c3cc(C(=O)Nc4cc(F)c(F)c(F)c4)ccc3F)c2)OC1(C)C,hepatitis B virus,"viral replication, qPCR, refers to: intracellular core DNA",HepAD38 cells,6 days,,EC50,0.5 ± 0.07 µM
CCc1nc2[nH]c(=O)n(O)c(=O)c2s1,Brassica rapa,,,"750 g/ha, 21 days, pre-emergence, glasshouse pot",,growth inhibition,2.4%
CC(=O)NC[C@H]1CN(c2ccc(N3CCOCC3)c(F)c2)C(=O)O1,Enterococcus faecalis,,"vancomycin-intermediate, 10 isolates",serum 75%,,MIC50,4 µg/mL
O=c1cccc(O)c(O)c1O,hepatitis B virus,"viral replication, refers to: plus-strand viral DNA",HepDES19,,,EC50,36.6 ± 10.8 µM
CO[C@H]1/C=C/O[C@@]2(C)Oc3c(C)c(O)c4c(c3C2=O)C2=NC3(CCN(CC(C)C)CC3)NC2=C(NC(=O)/C(C)=C\C=C\[C@H](C)[C@H](O)[C@@H](C)[C@@H](O)[C@@H](C)[C@H](OC(C)=O)[C@@H]1C)C4=O,Mycobacteroides abscessus,bacterial growth,subsp. abscessus M9 clinical isolate,,,IC90,5.47 µM
Cc1cc(=O)c2c(o1)C[C@@H](O)C[C@H]2O,Zika virus,"viral replication, CCK-8",Vero C1008,"10 µM, 96 h",,inhibition,17.3 ± 1.12%
Cc1nc2[nH]c(=O)n(OS(=O)(=O)c3ccccc3)c(=O)c2s1,Brassica rapa,,,"100 mg/mL, 72 h",,root length inhibition,45%
Cc1nc(NCCNc2ccnc3cc(Cl)ccc23)nc(-c2ccccc2[N+](=O)[O-])c1C(=O)OC(C)C,reovirus 1,viral replication,Vero,,,EC50,> 20 µM
CN[C@H](CC(C)C)C(=O)N[C@H]1C(=O)N[C@@H](CC(N)=O)C(=O)N[C@H]2C(=O)N[C@H]3C(=O)N[C@H](C(=O)N[C@H](C(=O)O)c4cc(O)cc(O)c4-c4cc3ccc4O)[C@H](O)c3ccc(c(Cl)c3)Oc3cc2cc(c3O[C@@H]2O[C@H](CO)[C@@H](O)[C@H](O)[C@H]2O[C@H]2C[C@](C)(N)[C@H](O)[C@H](C)O2)Oc2ccc(cc2Cl)[C@H]1O,Enterococcus faecalis,,intermediate susceptibility,"75% serum, 10 isolates",,MIC50,4 µg/mL
Nc1nc(-c2ccccc2)nc2[nH]nc(Nc3ccc(C(F)(F)F)cc3)c12,coxsackievirus B3,,"31-1-93, NMRI mice, CVB3 chronic myocarditis","oral, 100 mg/kg twice daily, day 8, dosed days 0 to 6, score scale 0 to 7",direction not given,clinical score,0.1

# A few entries again:
SMILES,organism,test,test system,conditions,scale,measurement,result
CC(C)[C@@H]1NC(=O)[C@@H](CCCCN)NC(=O)[C@H]([C@@H](C)O)NC(=O)[C@@H](CCCN)NC(=O)[C@H](Cc2ccccc2)NC(=O)[C@@H](Cc2ccccc2)NC1=O,Acanthamoeba castellanii,,,trophozoites,,IC50,> 16 µg/mL
CC1(C)OB(c2cccc(CNS(=O)(=O)c3cc(C(=O)Nc4cc(F)c(F)c(F)c4)ccc3F)c2)OC1(C)C,hepatitis B virus,"viral replication, qPCR, refers to: intracellular core DNA",HepAD38 cells,6 days,,EC50,0.5 ± 0.07 µM
CCc1nc2[nH]c(=O)n(O)c(=O)c2s1,Brassica rapa,,,"750 g/ha, 21 days, pre-emergence, glasshouse pot",,growth inhibition,2.4%
CC(=O)NC[C@H]1CN(c2ccc(N3CCOCC3)c(F)c2)C(=O)O1,Enterococcus faecalis,,"vancomycin-intermediate, 10 isolates",serum 75%,,MIC50,4 µg/mL
O=c1cccc(O)c(O)c1O,hepatitis B virus,"viral replication, refers to: plus-strand viral DNA",HepDES19,,,EC50,36.6 ± 10.8 µM
